Published values gathered from unrelated publications.
Values joined by “and” are separate records of one study, mostly repeats; a detail may differ. ± gives the spread as reported.

Under “stroke volume change”, `COC(=O)CCc1ccc(OCC(O)CNC(C)C)cc1` (stereo not shown) is recorded as 0.9% (pulse pressure wave equation; healthy male humans; dose not given, 5 min, with: saline; baseline: baseline).
For `C[C@@H](O)CCOC(=O)C[C@@H](C)O`, the metabolite level was -2.84 ± 1.19 µmol/L (measured: C10 acylcarnitine; human, plasma; 60 min, log2-transformed values).
`COc1cc2c3cc1Oc1cc(ccc1O)C[C@@H]1c4c(cc(OC)c(O)c4Oc4ccc(cc4)C[C@@H]3N(C)CC2)CC[N+]1(C)C` — result for “isometric force AUC”: 64.3% and 35.1% and 23% and 36.3% and 20.9% and 19.8% (nerve stimulation ex vivo; rat diaphragm nerve-muscle preparation; 300 nM; baseline: control).
`NC(=O)c1cnc2[nH]ccc2c1N[C@@H]1[C@@H]2CC3C[C@H]1C[C@@](O)(C3)C2` gave a percent change of -0.68% (CD4+ CD28+ naive T cells, flow cytometry; Caucasian humans, peripheral blood; 60 mg single dose; baseline: baseline).
For `CO[C@H]1CC[C@H](N2C(=O)CNc3ncc(-c4ccc(C(C)(C)O)nc4)nc32)CC1`, “pS6RP change from baseline” read -71.8% (flow cytometry; stimulated B cells, human, blood; 30 mg single dose, 3 h, mean; baseline: baseline).
`O=C[C@H](O)[C@H](O)[C@H](O)COP(=O)(O)O` — result for “z-scored log2 fold change”: 0.268 (binding, equilibrium dialysis LC-MS; 5 µM, thermostabilized A2AR-BRIL construct; baseline: no-protein control, direction not given).
For `O=P(O)(O)C(Cl)(Cl)P(=O)(O)O`, “Iba1-positive area difference” read -0.203% (immunostaining; mouse, sham-operated, hippocampal fissure; dose not given; baseline: day 1 over day 7).
For `COc1ccc(-c2cncc(N[C@@H](C)c3cccc(NC(=O)c4cncc(C)c4)c3)n2)cc1OC`, the fold change was 0.745 (measured: rno-miR-142-5p; rat SU5416/hypoxia model, lung; dose not given; baseline: SU5416/hypoxia vehicle).
`O=C(COc1ccc(Cl)cc1)NC12CC(c3nnc([C@H]4C[C@@H](OC(F)(F)F)C4)o3)(C1)C2` — result for “ATF4 protein change”: -55.2% (healthy human, PBMC; oral, 400 mg single dose, day 1, 4 h post-dose, median, with: sodium arsenite ex vivo; baseline: baseline).
For `Nc1ncnc2c1ncn2[C@@H]1O[C@H](CSCC[C@H](N)C(=O)O)[C@@H](O)[C@H]1O`, “z-scored log2 fold change” read 0.356 (binding, equilibrium dialysis LC-MS; 5 µM, thermostabilized A2AR-BRIL construct; baseline: no-protein control, direction not given).
`O=C(O)CNC(=O)Cc1ccccc1` has a sarcomere length of 1.62 µm (ventricular cardiomyocytes, C57BL/6 mouse; dose not given, 0.532 s).
`COc1cc2cc(-c3ccc(CC(=O)Nc4cc(C(C)(C)C(F)(F)F)no4)cn3)cnc2cc1OC`: “objective response rate” 17% (RECIST v1.1; human RET-altered solid tumours; 12 75 mg tablets, phase I).
The licking duration of `COc1cc(CNC(=O)CCCC/C=C/C(C)C)ccc1O` is reported as 77.8 ± 3.8 s (nociceptive behaviour; mouse; intraplantar, 1.6 µg).
For `Cc1cc(Nc2cc3ncccc3c(N[C@@H]3C[C@H]4CC[C@@H](C3)N4CCC#N)n2)n[nH]1`, “change physician global assessment” read -0.5 (moderate-severe ulcerative colitis patients; 270 mg, day 28, Mayo subscore, unit not given; baseline: baseline).
`COc1cc(C(O)C(=O)O)ccc1O` (racemic) — result for “z-scored log2 fold change”: -1.18 (binding, equilibrium dialysis LC-MS; 5 µM, thermostabilized A2AR-BRIL construct; baseline: no-protein control, direction not given).
For `CN(C)C(=O)c1cc2cnc(Nc3ccc(N4CCNCC4)cn3)nc2n1C1CCCC1`, “normalized enrichment score” read 1.36 (RNA-seq GSEA, measured: HALLMARK_ANDROGEN_RESPONSE; MB002 tumour; concentration not given, in vivo; baseline: vehicle, direction not given).
For `CC1(C)CCC(c2ccc(Cl)cc2)=C(CN2CCN(c3ccc(C(=O)NS(=O)(=O)c4ccc(N[C@H](CCN5CCOCC5)CSc5ccccc5)c(S(=O)(=O)C(F)(F)F)c4)cc3)CC2)C1`, the EC50 was 143 nM (cell killing; primary canine neoplastic T cells, dog 16; 24 h).
For `CSc1ccc(C(=O)/C=C/c2cc(C)c(OC(C)(C)C(=O)O)c(C)c2)cc1`, “hepatic lipid accumulation” read “decreased” (measured: TC, TG, NEFA; C57BL/6 mice, WD/CCl4 MASH model, liver; oral, 30 mg/kg daily, 4 weeks; baseline: model group).
For `N#Cc1ccc2c(-c3ccncc3)c(-c3ccc(F)cc3)nn2c1`, “log2 fold change” read -0.191 (kinase binding, competitor, MIB/MS competition, measured: RTK1; Candida albicans cell lysate; 1 µM; baseline: DMSO).
With `CCCCC1(CCCC)CN(c2ccccc2)c2cc(SC)c(OCC(=O)N[C@@H](C(=O)NCC(=O)O)c3ccccc3)cc2S(=O)(=O)C1` the plasma C4 was 66.9 ng/mL (measured: 7α-hydroxy-4-cholesten-3-one; human, plasma; 10 mg once daily, day 13).
`CC(=O)Oc1cc2c(s1)CCN(C(C(=O)C1CC1)c1ccccc1F)C2` (stereo not shown) — result for “patients with inhibition above threshold”: 0% (platelet aggregation, light transmission aggregometry; human patients, platelet-rich plasma; dose not given, 30 min, inhibition threshold 90%, with: ADP 5 µM).
`O=C1[C@H](CC[C@H](O)c2ccc(F)cc2)[C@@H](c2ccc(O)cc2)N1c1ccc(F)cc1`: “plasma total cholesterol” “decreased” (male LDLr-/- mice, Western diet; dose not given, 2 weeks; baseline: vehicle).
`CC(C)c1ncc(C(=O)N2CCOC3(CCN(Cc4ccc(F)c(CCNC[C@H](O)c5ccc(O)c6[nH]c(=O)sc56)c4)CC3)C2)s1` — result for “trough FEV1 change”: 48 mL (COPD patients; 58 µg single, 24 h, day 1; baseline: baseline, placebo-corrected).
`OC(CCN1CCCCC1)(c1ccccc1)C1CC2C=CC1C2` (stereo not shown): “change in EEG Beta1-power Fz-Cz” -11.1% (resting-state EEG; healthy elderly humans; oral, 2 mg, eyes open, LS mean; baseline: baseline).
Under “median Schiff sensitivity score change”, `N=C(N)NCCC[C@H](NC(=O)[C@H](CCCNC(=N)N)NC(=O)[C@H](CCCCN)NC(=O)[C@H](CCC(N)=O)NC(=O)[C@H](CCCCN)NC(=O)[C@H](Cc1ccc(O)cc1)NC(=O)[C@@H](N)CCCCN)C(=O)N[C@@H](CO)C(=O)N[C@@H](Cc1ccc(O)cc1)C(=O)N[C@@H](CCCCN)C(=O)O` is recorded as -0.5 (air evaporative stimulus; dentin hypersensitivity patients; 5 µg/tooth single, day 22; baseline: baseline, direction not given).
`Cn1cc(Nc2nccc(-c3ccc4c(c3)CN(C3COC3)CC[C@H]4NC(=O)c3cn(C(C)(C)C)nn3)n2)cn1`: “pathway activation z-score” 0 (measured: S phase Entry, Estrogen-mediated; splenic B cells, mouse; in vivo, 30 mg/kg, IgD-activated B cells; baseline: vehicle, positive = activation).
Under “z-scored log2 fold change”, `O=C(O)[C@@H](O)[C@@H](O)[C@H](O)[C@@H](O)C(=O)O` is recorded as 0.172 (binding, equilibrium dialysis LC-MS; 5 µM, thermostabilized A2AR-BRIL construct; baseline: no-protein control, direction not given).
For `C[C@H](CS)C(=O)N1CCC[C@H]1C(=O)O`, the writhing count was 59 and 52 and 67 and 55 and 51 and 62 (male ICR-CD1 mice; ip, 50 mg/kg, with: acetic acid 1%).
`CC(C)NCC(O)c1ccc(O)c(O)c1` (stereo not shown) gave a sarcomere length of 1.72 µm (ventricular cardiomyocytes, C57BL/6 mouse; dose not given, 0.744 s).
`CN(C(=O)n1cnc(-c2ccc[n+]([O-])c2)c1)C1CCCCC1` gave an AUC(0-t) of 275 ng·h/mL (measured: LEA; human, plasma; 2.5 mg single dose).
With `O=Cc1ccc(O)cc1` the radical scavenging was 7.42 ± 1.16% (DPPH radical; 300 µg/mL).
`Nc1ccn([C@H]2C[C@H](O)[C@@H](CO)O2)c(=O)n1` — result for “z-scored log2 fold change”: 0.105 (binding, equilibrium dialysis LC-MS; 5 µM, thermostabilized A2AR-BRIL construct; baseline: no-protein control, direction not given).
`Cn1cc([C@H]2C[C@H]3CSC(N)=N[C@@]3(c3ccc(F)cc3F)CO2)cn1`: “brain Aβ40 level” 2.46 ng/g (measured: Aβx-40; wild-type mouse, brain; subcutaneous, 3 mg/kg, 1 h).
For `COc1ccc2[nH]cc(CC(=O)O)c2c1`, “z-scored log2 fold change” read 0.0923 (binding, equilibrium dialysis LC-MS; 5 µM, thermostabilized A2AR-BRIL construct; baseline: no-protein control, direction not given).
For `C[C@H](Oc1ccc(Br)cc1-c1ccon1)C(=O)O`, “difference from placebo” read 7.29% (last response peak; human, tibialis anterior muscle; 400 mg, 15 Hz, single ascending dose).
`NCC(=O)Nc1cncc(-c2nn3c(=O)cc(N4CCNCC4)nc3s2)c1` gave an inhibition of 8.43% (ADP-induced platelet aggregation, light transmission aggregometry; human, stable CAD on aspirin, ex vivo platelets; subcutaneous, 0.05 mg/kg, 360 min post-dose, mean value, with: ADP 20 µM).
`N#Cc1ccc2c(c1)[C@H]1CCCN(C(=O)c3ccc4[nH]cnc4c3)[C@H]1C2`: “diastolic blood pressure change” 0.8 mmHg (human, Phase II trial; 240 mg once daily, day 28, adjusted mean; baseline: baseline).
For `O=P(O)(O)O[C@H]1O[C@H](CO)[C@H](O)[C@H](O)[C@H]1O`, “z-scored log2 fold change” read 0.126 (binding, equilibrium dialysis LC-MS; 5 µM, thermostabilized A2AR-BRIL construct; baseline: no-protein control, direction not given).
For `c1ccc(-c2n[nH]cc2-c2ccnc3ccccc23)nc1`, “log2 fold change” read 1.39 (kinase binding, competitor, MIB/MS competition, measured: ENV7; Candida albicans cell lysate; 1 µM; baseline: DMSO).
For `C[C@H]1C[C@H]2CSC(N)=N[C@@]2(c2nc(NC(=O)c3ccc(OC(F)F)cn3)cs2)CO1`, “percent change from baseline” read -53.8% (measured: total Aβ; healthy adults, plasma; 160 mg single dose, 48 h post-dose; baseline: placebo).
`C=CCn1c(=O)c2cnc(Nc3ccc(N4CCN(C)CC4)cc3)nc2n1-c1ccc2c(n1)[C@@](O)(CC)CC2` — result for “tumour volume difference”: 993 ± 36.5 mm3 (HT-29 xenograft, BALB/c nude mice; oral, 60 mg/kg once daily x 22, day 21).
Under “objective response rate”, `CCN1[C@@H](C(=O)NC23CCC(C(=O)O)(CC2)CC3)[C@H](c2cccc(Cl)c2F)[C@]2(C(=O)Nc3cc(Cl)ccc32)C12CCCCC2` is recorded as 10% (human, advanced solid tumours; dose not given, whole population, RECIST).
`O=C(O)COC(=O)Cc1ccccc1Nc1c(Cl)cccc1Cl` has a Km of 5.9 µM (bioactivation, measured: unknown glutathione adduct; human).
`N#Cc1ccn2c(-c3ccncc3)c(-c3ccc(F)cc3)nc2c1` — result for “log2 fold change”: -0.0632 (kinase binding, competitor, MIB/MS competition, measured: NPR1; Candida albicans cell lysate; 1 µM; baseline: DMSO).
For `O=C1N(Cc2ccccc2Cl)c2ccccc2C12NN=C(c1ccccc1)S2` (stereo not shown), “lung tumour burden” read “decreased” (A549 cells, nude mouse, orthotopic model; 40 mg/kg; baseline: placebo).
The LVEDP of `O=C(/C=C/c1ccc(O)c(O)c1/C=C/c1ccc(O)c(O)c1)O[C@H](Cc1ccc(O)c(O)c1)C(=O)O` is reported as 3.85 mmHg (isolated myocardial tissue; 1 µM).
The amount of `CC(c1cc2ccccc2s1)N(O)C(N)=O` (stereo not shown) is reported as 229 ± 22 pg/mL blood (measured: 17-HDHA; human whole blood; 3 µM, with: Escherichia coli).
For `C[C@@H]1O[C@@H](Oc2ccc(CC#N)cc2)[C@H](O)[C@H](O)[C@H]1O`, the radical scavenging was 7.25 ± 0.98% (DPPH radical; 300 µg/mL).
`OCC(O)CO` — result for “plasma FGF21 level”: 222 pg/mL and 324 pg/mL and 990 pg/mL and 290 pg/mL and 287 pg/mL (ELISA; female Gpd2 knockout mice, serum; oral in drinking water, 5 % w/v, 2 days).
`N[C@H](CCC(=O)O)C(=O)O`: “z-scored log2 fold change” 0.506 (binding, equilibrium dialysis LC-MS; 5 µM, thermostabilized A2AR-BRIL construct; baseline: no-protein control, direction not given).
`Cc1c(C)n(Cc2cccc(OC(C)(C)C(=O)O)c2)c2ccc(C(=O)N[C@@H](C)c3ccc(C(C)(C)C)cc3)cc12` has a tissue volume of 2.79 ± 0.176 mm3 (C57BL/6 mouse, diet-induced obesity, L4 vertebra; dose not given).
`C[C@H]1O[C@@H](O[C@H]2CC[C@@]3(C)[C@@H](CC[C@]4(C)[C@@H]3C=C[C@]35OC[C@@]6(CCC(C)(C)C[C@H]63)[C@@H](O)C[C@]54C)[C@]2(C)CO)[C@H](O)[C@@H](O[C@@H]2O[C@H](CO)[C@@H](O)[C@H](O)[C@H]2O)[C@H]1O` has a protein level of 1.32 and 0.995 and 0.651 (Western blot, measured: Deptor; mice, normal control diet, liver; dose not given, high dose, unit not given; baseline: β-actin).

Repeated from above:
Under “objective response rate”, `CCN1[C@@H](C(=O)NC23CCC(C(=O)O)(CC2)CC3)[C@H](c2cccc(Cl)c2F)[C@]2(C(=O)Nc3cc(Cl)ccc32)C12CCCCC2` is recorded as 10% (human, advanced solid tumours; dose not given, whole population, RECIST).
For `CSc1ccc(C(=O)/C=C/c2cc(C)c(OC(C)(C)C(=O)O)c(C)c2)cc1`, “hepatic lipid accumulation” read “decreased” (measured: TC, TG, NEFA; C57BL/6 mice, WD/CCl4 MASH model, liver; oral, 30 mg/kg daily, 4 weeks; baseline: model group).
For `O=P(O)(O)C(Cl)(Cl)P(=O)(O)O`, “Iba1-positive area difference” read -0.203% (immunostaining; mouse, sham-operated, hippocampal fissure; dose not given; baseline: day 1 over day 7).
`CN(C(=O)n1cnc(-c2ccc[n+]([O-])c2)c1)C1CCCCC1` gave an AUC(0-t) of 275 ng·h/mL (measured: LEA; human, plasma; 2.5 mg single dose).
For `Cc1cc(Nc2cc3ncccc3c(N[C@@H]3C[C@H]4CC[C@@H](C3)N4CCC#N)n2)n[nH]1`, “change physician global assessment” read -0.5 (moderate-severe ulcerative colitis patients; 270 mg, day 28, Mayo subscore, unit not given; baseline: baseline).
`N#Cc1ccc2c(c1)[C@H]1CCCN(C(=O)c3ccc4[nH]cnc4c3)[C@H]1C2`: “diastolic blood pressure change” 0.8 mmHg (human, Phase II trial; 240 mg once daily, day 28, adjusted mean; baseline: baseline).
